Experimental data pooled from the literature.
Parts stem from different laboratories: compare values within a part only.

Study 1
Target: RING finger protein unkempt homolog, zinc fingers 1-6, GST-SBP tag (UNK, Homo sapiens, UniProt Q9C0B0, residues 30-357)
Technique: RNA Bind-n-Seq
Molecule type: RNA
Matrix: in vitro
Tested at: not given
Notes: RNA with constant flanks, human and mouse sites, ends assumed
Reference: input RNA pool
Direction: higher = stronger binding
Endpoint: bound/input enrichment
Target sequence (chain): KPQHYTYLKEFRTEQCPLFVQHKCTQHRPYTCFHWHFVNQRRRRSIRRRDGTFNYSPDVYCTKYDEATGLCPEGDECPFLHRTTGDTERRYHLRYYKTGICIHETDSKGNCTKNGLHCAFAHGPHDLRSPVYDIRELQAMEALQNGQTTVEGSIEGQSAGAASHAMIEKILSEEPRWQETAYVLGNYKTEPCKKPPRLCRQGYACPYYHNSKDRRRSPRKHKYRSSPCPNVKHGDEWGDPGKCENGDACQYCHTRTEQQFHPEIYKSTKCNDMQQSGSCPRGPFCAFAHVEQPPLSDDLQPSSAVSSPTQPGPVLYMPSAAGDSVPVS
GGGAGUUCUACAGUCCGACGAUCGAGAUACCAGGACAGAGUCAUUGCUACAUAUGUUUGACCUGAUCUAGCCUUUUCCAAAUGAAUAGCCUCAACUCUGUUGUAAAGAAAGUUUUAUUUGUAUUUUACUACUAUUGGGUCAAUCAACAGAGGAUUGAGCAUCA: 1.87 ratio
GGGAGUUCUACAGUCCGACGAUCUCCACCUCAAGGUCUUUGCAAAGCCCAAAAUCACCUAUGUAGAGAAUCAGACGGCCAUGGAACUAGAGGAGCAAGUCACUCUGACCUGUGAAGCCUCCGGAGACCCCAUCCCCUCCAUCACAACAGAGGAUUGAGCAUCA: 0.0863 ratio
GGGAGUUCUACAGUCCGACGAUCCCUGAAUUCUUGGUCUAUUUUCCAUUGCUAACUGAAAUGGCAAAGAAGUAUAAUAUGAAACUAAUCUACAAAAAAACAUUUUUGGAAUUCUAUGAAGAAAAGAUUAAAAACAAUGAAAACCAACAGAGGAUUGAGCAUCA: 0.286 ratio
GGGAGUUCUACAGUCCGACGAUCUCACUUUGUGAUUAUUUCACUUUAGAUGCUGAUGAUUUGUUUUUGUAUUUUUAAUGGGGGUAGCAGCUGGACUACCCACGUUCUCACACCCACCGUCCGCCCUGCUCCUCCCUGGCUGCCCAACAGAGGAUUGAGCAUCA: 0.511 ratio
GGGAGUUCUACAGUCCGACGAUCCCCACCACAAAAAUUCAGAUCAGGUUGGCAGAUGGAAGUCGUCUCGUACAGAGAUUCAAUAGCACACACCGGAUUCUGGAUGUACGAGACUUUAUAGUACGGUCACGUCCUGAAUUUGCGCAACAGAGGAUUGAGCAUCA: 0.262 ratio
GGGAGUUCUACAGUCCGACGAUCUUUGCUUUUCAUCUUUUAUAGAUGUAAUCUGAUUUUCAAAAAUCAUUAACACUUUUUAAUUAGUAUCGACUAAGACUUUUUCCCCCUGGAAUCGAGGCUGUGUGUCCGUCAUCCCAGCCCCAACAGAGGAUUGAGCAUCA: 4.63 ratio
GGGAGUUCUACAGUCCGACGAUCGUCAAUCACUUUGACAAGUCUCCUGGAAGGAACAGCCAGCGGGAGUUGAAACCUUUUUCCAUUUGGUCUCGUGGCAAAGGCAGAGAUUGCUCCAGCAGCUCCACACAAUAUGACGUGUUCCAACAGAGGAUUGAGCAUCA: 0.234 ratio

Study 2
Target: PABPC1L2, full length, GST fusion (mouse, UniProt A0ABA7IW68)
Technique: RNAcompete
Molecule type: RNA
Matrix: in vitro
Tested at: 20 nM
Notes: 7-mer, probes averaged, single round
Reference: mean of 7-mers
Direction: higher = stronger binding
Endpoint: 7-mer Z-score
Target sequence (chain): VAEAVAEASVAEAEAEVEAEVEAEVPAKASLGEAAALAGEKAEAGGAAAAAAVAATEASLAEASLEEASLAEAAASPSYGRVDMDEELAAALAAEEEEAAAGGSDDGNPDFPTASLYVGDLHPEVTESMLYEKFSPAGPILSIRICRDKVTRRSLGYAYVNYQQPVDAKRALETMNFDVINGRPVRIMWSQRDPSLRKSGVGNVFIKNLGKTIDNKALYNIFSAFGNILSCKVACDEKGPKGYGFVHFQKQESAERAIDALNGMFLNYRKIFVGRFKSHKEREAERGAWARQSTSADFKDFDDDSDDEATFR
CCCUCAA: -0.151
GGUGGAG: 0.0678
CCGACCA: -0.17
GUGAACC: -0.248
ACCAGGU: -0.0754
UGUUAGU: -0.34
AACGGGC: 0.269
GCCACGU: -0.164
CCUCUUC: -0.49
UGAAGCG: -0.0373
UUGAGUU: -0.378
AGGAGAA: 0.476
GUGGCAC: 0.0895
CAUCACA: -0.00289

Study 3
Target: Fragile X messenger ribonucleoprotein 1, C-terminal low-complexity region (Fmr1, Mus musculus, UniProt P35922)
Technique: RNA Bind-n-Seq
Molecule type: RNA
Matrix: in vitro
Tested at: 200 nM
Notes: whole 134-nt RNA, ends assumed
Together with: 150 mM LiCl
Reference: input library
Direction: higher = stronger binding
Endpoint: log2 enrichment
Library: 7-deaza-guanosine replaces G
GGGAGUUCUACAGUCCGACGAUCUCCUGUGCUACACAUCGUAUGUACCGAAUCGGGUUUUUUUGGGAAAAAAAGGGUUUGGGAAAGUAUUAUGUUACGCCGUUCGGAUCUGCAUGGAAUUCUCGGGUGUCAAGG: -2.78
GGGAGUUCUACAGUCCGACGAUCACCAUGCAGGUGGGCAUCUUUGGGAAGUGGGGCAAGGGGGGGAUAGGUAGGGGGGUAACACUUUGGGAACAGGUGGUCCCAGGUCGUUUCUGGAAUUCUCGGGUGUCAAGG: 1.43
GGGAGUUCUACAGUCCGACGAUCUCCUGUGCUACACAUCGUAUGUACCGAAUCAAACCCCCCCAAAUUUAAACCCCCCCAAAAAAGUAUUAUGUUACGCCGUUCGGAUCUGCAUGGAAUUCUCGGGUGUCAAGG: 2.25
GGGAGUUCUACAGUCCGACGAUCCAAGUCCUGUGCUACACAUCGUAUGUACCGAAUCGGAAAGGUUUGGUUUUUUUGGAAAGUAUUAUGUUACGCCGUUCGGAUCUGCACUUCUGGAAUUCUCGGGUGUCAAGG: -1.69
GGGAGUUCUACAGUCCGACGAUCCCUCAAGUCCUGUGCUACACAUCGUAUGUACCGAAUCGGAGGGGAGGGAGGGGAAAGUAUUAUGUUACGCCGUUCGGAUCUGCACUUCCAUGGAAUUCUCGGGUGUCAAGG: -1.07
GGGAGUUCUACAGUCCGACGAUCAGUCCUGUGCUACACAUCGUAUGUACCGAAUCGGGGAAAAGGAAAAGGGGAAAAGGGGAAAGUAUUAUGUUACGCCGUUCGGAUCUGCACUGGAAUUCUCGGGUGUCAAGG: 0.0815
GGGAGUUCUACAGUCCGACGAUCUCCUGUGCUACACAUCGUAUGUACCGAAUCGGGGCCCCCCGGCCCCCCGGCCCCCCGGGAAAGUAUUAUGUUACGCCGUUCGGAUCUGCAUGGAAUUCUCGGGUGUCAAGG: 0.951

Study 4
Target: Interferon regulatory factor 5, full length, phosphomimetic (IRF5, Homo sapiens, UniProt Q13568-2, residues 1-514, K96S/S451D/S453D/S456D/S462D)
Technique: protein-binding microarray
Molecule type: double-stranded DNA, one strand shown
Matrix: in vitro
Tested at: 250 nM
Notes: 60-bp whole probe
Together with: salmon DNA 0.4 mg/ml
Reference: random background probes
Direction: higher = stronger binding
Endpoint: log fluorescence
Constant ends, left off below: GCCTAGCAC … GTCTTGATTCGCTTGACGCTGCTG
TTAGGACTGGGACTGGGCTAGTGCTAG: -0.467 z-score
CTAGGTATCCTACTGCTTTAGTGCTAG: -0.33 z-score
TTAGGTATCCTGATCCTTTAGTGCTAG: -0.295 z-score
TTAGATCTCAGTTTCGATTTGTGCTAG: 9.37 z-score
TTAGGACTGGGTCTAGGTTAGTGCTAG: -0.83 z-score
TTGTGTCTGGGCTTTTTCCCCGTGCTA: -0.458 z-score
GTAGGACTGGGGTATCGGTTAGTGCTA: 2 z-score
GACGGACTGGACTTTCGGGTCGTGCTA: 6.03 z-score
TCACTTTACACACATCATACTGTGCTA: 1.12 z-score
TTAGGTACCGACTTTCGGTTAGTGCTA: 9.77 z-score
TCACTTACCTCACTCGTACTGTGCTAG: 0.412 z-score

Study 5
Target: Histone acetyltransferase KAT6A, both winged helices, GST fusion (KAT6A, Homo sapiens, UniProt Q92794, residues 1-181)
Technique: protein binding microarray
Molecule type: double-stranded DNA, one strand shown
Matrix: in vitro
Tested at: not given
Notes: 8-mer, flanks averaged, mean of 2 arrays, mostly near background
Reference: not given
Direction: higher = stronger binding
Endpoint: E-score
Target sequence (chain): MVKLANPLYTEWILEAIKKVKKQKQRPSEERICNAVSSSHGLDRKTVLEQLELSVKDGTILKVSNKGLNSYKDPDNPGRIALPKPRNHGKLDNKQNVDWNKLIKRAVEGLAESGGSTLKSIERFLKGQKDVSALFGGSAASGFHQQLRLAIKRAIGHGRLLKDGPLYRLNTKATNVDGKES
AACTTTCC: -0.179
GGGTGTAA: 0.0503
CATATGAG: -0.0853
TGGGTTAA: -0.223
AGCACCAC: -0.148
GACTGGGA: -0.123
CAGCCACG: 0.0243
AAGGCCCC: 0.0979
ATCCGACA: 0.0669
CGATACCG: 0.189
ATTTTTTA: -0.0774
GATCTCAC: 0.0189
AATTAACT: -0.123
AACTCGGA: -0.0248
CGGGCAGA: 0.208

For quick reference, copied from above (study 1):
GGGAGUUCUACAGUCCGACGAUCUCCACCUCAAGGUCUUUGCAAAGCCCAAAAUCACCUAUGUAGAGAAUCAGACGGCCAUGGAACUAGAGGAGCAAGUCACUCUGACCUGUGAAGCCUCCGGAGACCCCAUCCCCUCCAUCACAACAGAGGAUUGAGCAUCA: 0.0863 ratio
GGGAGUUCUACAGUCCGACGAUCCCUGAAUUCUUGGUCUAUUUUCCAUUGCUAACUGAAAUGGCAAAGAAGUAUAAUAUGAAACUAAUCUACAAAAAAACAUUUUUGGAAUUCUAUGAAGAAAAGAUUAAAAACAAUGAAAACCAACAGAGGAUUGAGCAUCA: 0.286 ratio
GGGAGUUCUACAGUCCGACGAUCUCACUUUGUGAUUAUUUCACUUUAGAUGCUGAUGAUUUGUUUUUGUAUUUUUAAUGGGGGUAGCAGCUGGACUACCCACGUUCUCACACCCACCGUCCGCCCUGCUCCUCCCUGGCUGCCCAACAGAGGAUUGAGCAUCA: 0.511 ratio
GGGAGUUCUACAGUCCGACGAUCCCCACCACAAAAAUUCAGAUCAGGUUGGCAGAUGGAAGUCGUCUCGUACAGAGAUUCAAUAGCACACACCGGAUUCUGGAUGUACGAGACUUUAUAGUACGGUCACGUCCUGAAUUUGCGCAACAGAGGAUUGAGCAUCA: 0.262 ratio
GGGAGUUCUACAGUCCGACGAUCUUUGCUUUUCAUCUUUUAUAGAUGUAAUCUGAUUUUCAAAAAUCAUUAACACUUUUUAAUUAGUAUCGACUAAGACUUUUUCCCCCUGGAAUCGAGGCUGUGUGUCCGUCAUCCCAGCCCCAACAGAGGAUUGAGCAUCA: 4.63 ratio
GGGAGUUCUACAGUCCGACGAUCGUCAAUCACUUUGACAAGUCUCCUGGAAGGAACAGCCAGCGGGAGUUGAAACCUUUUUCCAUUUGGUCUCGUGGCAAAGGCAGAGAUUGCUCCAGCAGCUCCACACAAUAUGACGUGUUCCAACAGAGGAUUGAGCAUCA: 0.234 ratio
